Results of several laboratories.
Compare with care: the assays were run in different laboratories. Numbers after ± are the reported error.
GABRA1/GABRB3 L291T with gamma-2 subunit: GABA-A receptor alpha-1/beta-3, with gamma-2 subunit (GABRA1/GABRB3, Homo sapiens, UniProt P14867+P28472, L291T)
Chain of UniProt P28472 (whole entry, unmodified, looked up): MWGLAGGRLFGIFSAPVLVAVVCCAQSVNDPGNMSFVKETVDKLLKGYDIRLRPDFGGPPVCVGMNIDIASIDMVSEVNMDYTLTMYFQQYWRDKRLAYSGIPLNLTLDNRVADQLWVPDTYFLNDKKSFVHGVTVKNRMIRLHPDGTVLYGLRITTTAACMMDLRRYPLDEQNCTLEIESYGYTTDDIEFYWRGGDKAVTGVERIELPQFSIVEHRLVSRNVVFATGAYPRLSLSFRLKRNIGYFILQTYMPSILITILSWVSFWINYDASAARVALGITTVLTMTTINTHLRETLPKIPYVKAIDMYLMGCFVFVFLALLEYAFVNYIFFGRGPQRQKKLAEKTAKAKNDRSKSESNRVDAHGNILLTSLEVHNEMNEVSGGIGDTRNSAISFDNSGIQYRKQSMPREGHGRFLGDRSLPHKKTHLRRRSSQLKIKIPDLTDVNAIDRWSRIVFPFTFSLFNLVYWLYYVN
Chain of UniProt P14867 (whole entry, unmodified, looked up): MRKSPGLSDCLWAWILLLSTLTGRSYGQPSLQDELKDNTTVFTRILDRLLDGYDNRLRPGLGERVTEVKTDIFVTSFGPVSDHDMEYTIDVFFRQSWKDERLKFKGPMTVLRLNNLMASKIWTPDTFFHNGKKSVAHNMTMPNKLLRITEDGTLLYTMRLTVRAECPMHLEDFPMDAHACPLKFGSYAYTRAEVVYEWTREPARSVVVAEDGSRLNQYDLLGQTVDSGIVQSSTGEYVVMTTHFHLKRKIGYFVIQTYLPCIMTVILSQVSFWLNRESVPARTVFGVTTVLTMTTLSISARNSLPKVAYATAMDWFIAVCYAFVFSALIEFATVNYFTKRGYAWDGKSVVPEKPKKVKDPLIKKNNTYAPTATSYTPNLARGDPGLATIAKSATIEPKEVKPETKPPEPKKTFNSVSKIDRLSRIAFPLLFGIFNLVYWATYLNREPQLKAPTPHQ
Sterol carrier protein 2: Sterol carrier protein 2 (Homo sapiens, UniProt P22307)
Chain of UniProt P22307 (whole entry, looked up): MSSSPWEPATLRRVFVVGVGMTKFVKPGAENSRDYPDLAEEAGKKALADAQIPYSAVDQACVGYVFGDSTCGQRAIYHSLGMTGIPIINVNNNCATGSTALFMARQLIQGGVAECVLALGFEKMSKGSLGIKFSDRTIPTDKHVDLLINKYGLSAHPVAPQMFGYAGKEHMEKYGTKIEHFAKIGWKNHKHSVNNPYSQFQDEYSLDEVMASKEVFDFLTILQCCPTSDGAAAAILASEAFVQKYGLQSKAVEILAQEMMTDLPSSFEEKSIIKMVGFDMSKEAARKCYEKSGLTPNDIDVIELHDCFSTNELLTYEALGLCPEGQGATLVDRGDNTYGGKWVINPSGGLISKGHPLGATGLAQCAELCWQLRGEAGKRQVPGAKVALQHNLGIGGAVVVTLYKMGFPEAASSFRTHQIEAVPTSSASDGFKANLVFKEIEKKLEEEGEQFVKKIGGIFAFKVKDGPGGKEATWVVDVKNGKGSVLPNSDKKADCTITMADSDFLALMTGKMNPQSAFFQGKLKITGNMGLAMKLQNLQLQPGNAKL
GABA-A receptor; alpha-1/beta-3/gamma-2: GABA-A receptor; alpha-1/beta-3/gamma-2 (Homo sapiens, UniProt P14867+P18507+P28472)
Chain of UniProt P18507 (whole entry, looked up): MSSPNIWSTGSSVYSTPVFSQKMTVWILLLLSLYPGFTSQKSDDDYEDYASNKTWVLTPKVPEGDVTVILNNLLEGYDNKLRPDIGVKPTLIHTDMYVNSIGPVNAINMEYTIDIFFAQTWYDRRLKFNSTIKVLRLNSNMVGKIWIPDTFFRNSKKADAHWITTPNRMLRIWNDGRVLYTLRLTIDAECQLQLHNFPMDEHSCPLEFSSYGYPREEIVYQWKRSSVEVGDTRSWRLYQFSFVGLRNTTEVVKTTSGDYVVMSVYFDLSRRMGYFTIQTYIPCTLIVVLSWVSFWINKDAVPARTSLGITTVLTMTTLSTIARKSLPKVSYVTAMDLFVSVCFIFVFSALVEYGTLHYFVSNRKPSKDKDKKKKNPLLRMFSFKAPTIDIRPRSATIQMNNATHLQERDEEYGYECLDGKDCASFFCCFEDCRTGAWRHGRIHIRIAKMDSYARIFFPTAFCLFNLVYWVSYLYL
Chain of UniProt P18505 (whole entry, looked up): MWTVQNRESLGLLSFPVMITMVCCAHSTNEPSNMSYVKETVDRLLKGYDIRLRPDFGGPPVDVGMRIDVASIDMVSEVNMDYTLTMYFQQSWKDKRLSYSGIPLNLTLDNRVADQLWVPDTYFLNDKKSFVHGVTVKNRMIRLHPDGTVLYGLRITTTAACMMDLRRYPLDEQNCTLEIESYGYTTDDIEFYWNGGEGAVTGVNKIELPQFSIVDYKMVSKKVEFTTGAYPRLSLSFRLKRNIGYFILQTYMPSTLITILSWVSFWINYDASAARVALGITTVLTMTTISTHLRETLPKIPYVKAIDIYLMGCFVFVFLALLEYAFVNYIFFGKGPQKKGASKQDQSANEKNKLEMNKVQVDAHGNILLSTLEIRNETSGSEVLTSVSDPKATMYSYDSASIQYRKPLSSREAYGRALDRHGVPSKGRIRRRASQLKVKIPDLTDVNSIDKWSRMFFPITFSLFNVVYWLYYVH
Chain of UniProt P08908 (whole entry, looked up): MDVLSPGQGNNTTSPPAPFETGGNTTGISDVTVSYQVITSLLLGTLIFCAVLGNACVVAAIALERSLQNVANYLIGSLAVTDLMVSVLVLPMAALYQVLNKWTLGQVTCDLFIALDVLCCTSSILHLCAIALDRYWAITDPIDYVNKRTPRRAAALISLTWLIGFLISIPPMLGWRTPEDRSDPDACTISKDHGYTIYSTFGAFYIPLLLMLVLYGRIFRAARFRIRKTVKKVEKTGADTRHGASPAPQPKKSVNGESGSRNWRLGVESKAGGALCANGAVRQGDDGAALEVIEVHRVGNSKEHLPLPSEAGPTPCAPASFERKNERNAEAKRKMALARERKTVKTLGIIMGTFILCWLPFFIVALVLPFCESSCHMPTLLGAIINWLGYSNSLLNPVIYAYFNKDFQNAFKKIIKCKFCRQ
Chain of UniProt P10275 (whole entry, looked up): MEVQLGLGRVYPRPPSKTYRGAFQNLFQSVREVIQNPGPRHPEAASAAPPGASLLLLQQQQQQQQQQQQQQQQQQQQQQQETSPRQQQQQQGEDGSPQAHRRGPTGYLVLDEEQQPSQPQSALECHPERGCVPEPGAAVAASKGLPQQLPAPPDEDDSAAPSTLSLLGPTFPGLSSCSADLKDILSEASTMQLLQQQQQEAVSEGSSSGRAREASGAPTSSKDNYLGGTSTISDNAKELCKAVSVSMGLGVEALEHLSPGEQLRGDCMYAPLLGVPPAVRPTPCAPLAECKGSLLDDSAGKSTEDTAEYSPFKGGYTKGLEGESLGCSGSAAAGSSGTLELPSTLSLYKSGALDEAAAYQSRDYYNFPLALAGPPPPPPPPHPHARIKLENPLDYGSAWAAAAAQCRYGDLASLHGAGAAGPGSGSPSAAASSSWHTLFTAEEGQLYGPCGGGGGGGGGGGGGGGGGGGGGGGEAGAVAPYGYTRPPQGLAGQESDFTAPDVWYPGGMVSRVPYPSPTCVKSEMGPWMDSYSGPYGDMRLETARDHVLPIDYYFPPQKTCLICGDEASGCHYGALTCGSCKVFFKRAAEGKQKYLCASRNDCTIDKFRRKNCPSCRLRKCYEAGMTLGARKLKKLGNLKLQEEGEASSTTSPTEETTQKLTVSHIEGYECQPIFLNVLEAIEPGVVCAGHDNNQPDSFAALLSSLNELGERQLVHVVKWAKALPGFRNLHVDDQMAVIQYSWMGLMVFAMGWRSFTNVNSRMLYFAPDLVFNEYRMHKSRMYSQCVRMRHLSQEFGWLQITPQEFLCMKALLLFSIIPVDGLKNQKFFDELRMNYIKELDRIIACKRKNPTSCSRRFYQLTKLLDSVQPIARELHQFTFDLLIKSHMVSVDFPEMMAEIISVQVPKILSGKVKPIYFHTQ
Chain of UniProt P28223 (whole entry, looked up): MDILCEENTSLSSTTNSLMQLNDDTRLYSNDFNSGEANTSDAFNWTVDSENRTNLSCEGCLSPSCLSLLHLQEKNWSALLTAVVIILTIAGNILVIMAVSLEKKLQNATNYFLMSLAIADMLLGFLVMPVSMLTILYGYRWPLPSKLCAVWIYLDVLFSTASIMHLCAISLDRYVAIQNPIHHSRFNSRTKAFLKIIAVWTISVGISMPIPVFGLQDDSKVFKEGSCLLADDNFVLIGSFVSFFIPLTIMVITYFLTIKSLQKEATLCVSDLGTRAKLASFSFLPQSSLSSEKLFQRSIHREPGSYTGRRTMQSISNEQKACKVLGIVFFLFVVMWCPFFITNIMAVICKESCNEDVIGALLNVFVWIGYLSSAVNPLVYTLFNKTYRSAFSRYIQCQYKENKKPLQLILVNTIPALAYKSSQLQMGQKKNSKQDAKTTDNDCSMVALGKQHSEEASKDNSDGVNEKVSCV
Chain of UniProt P33533 (whole entry, looked up): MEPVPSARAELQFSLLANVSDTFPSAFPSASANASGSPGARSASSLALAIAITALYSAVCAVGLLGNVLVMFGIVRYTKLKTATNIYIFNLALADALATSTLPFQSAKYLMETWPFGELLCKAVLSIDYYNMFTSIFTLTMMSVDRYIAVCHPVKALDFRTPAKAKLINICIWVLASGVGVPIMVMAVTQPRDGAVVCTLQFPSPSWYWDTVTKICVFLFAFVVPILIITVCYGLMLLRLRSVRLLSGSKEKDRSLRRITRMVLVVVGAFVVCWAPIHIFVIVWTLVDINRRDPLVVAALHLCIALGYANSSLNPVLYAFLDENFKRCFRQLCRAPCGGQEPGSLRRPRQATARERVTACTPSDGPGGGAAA
Chain of UniProt Q923Y9 (whole entry, unmodified, looked up): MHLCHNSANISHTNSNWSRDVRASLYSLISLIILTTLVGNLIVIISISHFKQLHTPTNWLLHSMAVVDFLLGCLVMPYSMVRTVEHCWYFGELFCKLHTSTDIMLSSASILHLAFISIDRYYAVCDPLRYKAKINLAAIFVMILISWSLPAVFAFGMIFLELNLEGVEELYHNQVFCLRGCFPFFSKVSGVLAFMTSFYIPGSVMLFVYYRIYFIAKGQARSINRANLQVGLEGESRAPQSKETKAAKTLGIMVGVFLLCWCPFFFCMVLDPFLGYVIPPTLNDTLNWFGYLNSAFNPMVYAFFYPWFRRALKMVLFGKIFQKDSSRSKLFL

Compound | tested on | test | system | setting | scale | endpoint | value
CN1CC[C@]2(c3cccc(O)c3)Cc3nc4ccccc4cc3C[C@H]2C1 | Oprd1 (Rattus norvegicus, UniProt P33533) | agonist | ethanol-trained rat, rat cerebral cortex membranes | vehicle-pretreated | – | EC50 | 6.4 ± 0.9 µM
COC(=O)C[C@@H](C)OC(=O)c1cncn1[C@H](C)c1ccccc1 | GABRA1/GABRB3 L291T with gamma-2 subunit | ion current, agonist, two-electrode voltage clamp | Xenopus oocytes | – | reference: 100 µM GABA | EC50 | 11 ± 1 µM
CC/C=C\C/C=C\C/C=C\C/C=C\C/C=C\C/C=C\CCC(=O)NCCO | Sterol carrier protein 2 | NBDS displacement, fluorescent probe displacement | – | 50% of maximum displacement, together with: NBDS 500 nM | – | EC50 | 4.33 ± 0.1 µM
CN[C@@](C)(C[18F])C(=O)O | DU-145 tumour model | – | host not given, heart | 1 h, tumour-bearing | – | tracer uptake | 2.6 %ID/g
COc1ccc2[nH]cc(CCNC(C)C)c2c1 | HTR1A (Homo sapiens, UniProt P08908) | calcium signal, agonist | – | – | – | EC50 | > 10 µM
C[C@@]1(O)CC[C@H]2[C@H](CC[C@@H]3[C@@H]2CC[C@]2(C)[C@@H](C(=O)Cn4cc(C#N)cn4)CC[C@@H]32)C1 | GABA-A receptor; alpha-1/beta-2/gamma-2 (Homo sapiens, UniProt P14867+P18507+P47870) | GABA current potentiation, positive modulator, two-electrode voltage clamp | Xenopus laevis oocytes | 30 s preincubation, together with: GABA EC10 | – | EC50 | 0.32 ± 0.16 µM
CC(C(=O)c1ccc2c(c1)OCO2)N(C)C (stereo not drawn) | SLC6A4 (Homo sapiens, UniProt P31645) | [3H]5-HT release, releaser | HEK293 expressing target | – | – | EC50 | > 10 µM
CCCCC/C=C\C/C=C\C/C=C\C/C=C\CCCC(=O)NCCF | Sterol carrier protein 2 | NBDS displacement, fluorescent probe displacement | – | 50% of maximum displacement, together with: NBDS 500 nM | – | EC50 | 6.33 ± 0.48 µM
COC(=O)[C@@H](C)COC(=O)c1cncn1[C@H](C)c1ccccc1 | GABRA1/GABRB3 L291T with gamma-2 subunit | ion current, agonist, two-electrode voltage clamp | Xenopus oocytes | – | reference: 100 µM GABA | EC50 | 11 ± 2 µM
NCCc1ccc(Oc2ccc(O)cc2)c(I)c1 | Trace amine-associated receptor 1 (Rattus norvegicus, UniProt Q923Y9, F153Y) | cAMP accumulation, agonist, cell-based | – | TM4 mutant | – | EC50 | 0.038 ± 0.011 µM
C[C@]12C=CC3=C4CCC(=O)C=C4CCC3C1CC[C@@H]2O (stereo partly drawn) | Androgen receptor (AR, Homo sapiens, UniProt P10275) | reporter gene, agonist, luciferase | – | – | – | EC50 | 0.001 µM
CCOC(=O)c1cncn1C(C)c1ccc2ccccc2c1 (stereo not drawn) | GABA-A receptor; alpha-1/beta-3/gamma-2 | potentiation of GABA current, positive allosteric modulator, two-electrode voltage clamp | Xenopus oocytes | together with: GABA EC5 | – | EC50 | 19 µM
CCN(CC)CCc1c[nH]c2ccc(OC)cc12 | HTR2A (Homo sapiens, UniProt P28223) | calcium signal, agonist | – | – | – | EC50 | 0.00811 µM
CCOC(=O)c1cncn1[C@H](C)c1ccc(F)cc1 | GABA-A receptor; alpha-1/beta-3/gamma-2 | potentiation of GABA current, positive allosteric modulator, two-electrode voltage clamp | Xenopus oocytes | together with: GABA EC5 | – | EC50 | 1.6 µM
COC(=O)[C@H](C)OC(=O)c1cncn1[C@H](C)c1ccccc1 | GABRA1/GABRB3 L291T with gamma-2 subunit | ion current, agonist, two-electrode voltage clamp | Xenopus oocytes | – | reference: 100 µM GABA | EC50 | 9.4 ± 0.8 µM
CCCCC/C=C\C/C=C\C/C=C\C/C=C\CCCC(N)=O | Sterol carrier protein 2 | NBDS displacement, fluorescent probe displacement | – | 50% of maximum displacement, together with: NBDS 500 nM | – | EC50 | 4.09 ± 0.23 µM
CC(=O)[C@H]1CC[C@H]2[C@@H]3CC[C@H]4C[C@H](O)CC[C@]4(C)[C@H]3CC[C@]12C | GABA A receptor alpha-1/beta-1/gamma-2 (Homo sapiens, UniProt P14867+P18505+P18507) | GABA current potentiation, positive modulator, two-electrode voltage clamp | Xenopus laevis oocytes | 30 s preincubation, together with: GABA EC10 | – | EC50 | 0.09 ± 0.02 µM
COC(=O)CCOC(=O)c1cncn1[C@H](c1ccccc1)C(C)C | GABRA1/GABRB3 L291T with gamma-2 subunit | ion current, agonist, two-electrode voltage clamp | Xenopus oocytes | – | reference: 100 µM GABA | EC50 | 2.6 ± 0.3 µM

Repeated from above:
Compound | tested on | test | system | setting | scale | endpoint | value
CC(=O)[C@H]1CC[C@H]2[C@@H]3CC[C@H]4C[C@H](O)CC[C@]4(C)[C@H]3CC[C@]12C | GABA A receptor alpha-1/beta-1/gamma-2 (Homo sapiens, UniProt P14867+P18505+P18507) | GABA current potentiation, positive modulator, two-electrode voltage clamp | Xenopus laevis oocytes | 30 s preincubation, together with: GABA EC10 | – | EC50 | 0.09 ± 0.02 µM
COC(=O)CCOC(=O)c1cncn1[C@H](c1ccccc1)C(C)C | GABRA1/GABRB3 L291T with gamma-2 subunit | ion current, agonist, two-electrode voltage clamp | Xenopus oocytes | – | reference: 100 µM GABA | EC50 | 2.6 ± 0.3 µM
